Experimental data collected from several papers.
Each line is one published result; not all experiments were run side by side. ± marks the error that the study gave.
Organism: Salmonella typhimurium

O=[N+]([O-])c1ccc(N2CCC(NCCC(O)c3ccc(F)c4ccccc34)CC2)c(C(F)(F)F)c1 (stereo not shown)
induction factor (genotoxicity, SOS/umu test; TA1535/pSK1002; 0.016 mg/mL, 4 h, without S9, full range): 0.42

Cc1cc(C(=O)NC(C)(C)COc2cccc3c2C(N)=NS(=O)(=O)N3)cc(C)n1
revertant ratio (Ames test, confirmatory; TA100; 1000 µg/plate; reference: solvent control): 0.9

COc1cccc(-c2n[nH]c(SCc3ccccn3)n2)c1OC
revertant colonies per plate (Ames test, plate incorporation; TA1535; 0.25 mg/plate, without S9): 14

CC(C)N(C)N=O
revertant colonies per plate (mutagenicity, Ames plate incorporation; TA98; 5000 µg/plate, 3 d, without S9, methanol): 23.7 ± 8

N#C[C@@]1(n2ccc(N)nc2=O)O[C@H](CO)[C@@H](O)[C@H]1O
viability (TA98; 2.5 µM, without S9): 93%

O=[N+]([O-])c1ccc(NC2CCNCC2)c(C(F)(F)F)c1
survival (SOS/umu test; TA1535/pSK1002; 0.016 mg/mL, 4 h, without S9, full range): 104%

CNC(=O)c1c(N(C)N=O)ncn1C
revertant colonies per plate (mutagenicity, Ames plate incorporation; TA100; 150 µg/plate, without S9, methanol): 144 ± 20

CC(=O)N1CCC(C(=O)N2CCN3C(=O)c4cc(-c5ccccc5)ccc4NC(=O)C3C2)CC1 (stereo not shown)
revertants per plate (TA1537; 500 µg/plate): 13

CN(N=O)c1ccc(F)cc1
revertant colonies per plate (mutagenicity, Ames plate incorporation; TA1535; 2500 µg/plate, 3 d, without S9, methanol): 14.3 ± 7

O=[N+]([O-])c1ccc(N2CCN(CCC(O)c3ccc(F)cc3)CC2)c(C(F)(F)F)c1 (stereo not shown)
induction factor (genotoxicity, SOS/umu test; TA1535/pSK1002; 0.063 mg/mL, 4 h, with S9, full range): 1.4

For quick reference, copied from above:
CNC(=O)c1c(N(C)N=O)ncn1C
revertant colonies per plate (mutagenicity, Ames plate incorporation; TA100; 150 µg/plate, without S9, methanol): 144 ± 20
